Published values gathered from unrelated publications.
Protocols differ between the studies behind these lines. “And” joins repeats or separate records; there may be more than shown. ± gives the spread as reported.
B1: rsmI (Escherichia coli, UniProt P67087); chain MKQHQSADNSQGQLYIVPTPIGNLADITQRALEVLQAVDLIAAEDTRHTGLLLQHFGINARLFALHDHNEQQKAETLLAKLQEGQNIALVSDAGTPLINDPGYHLVRTCREAGIRVVPLPGPCAAITALSAAGLPSDRFCYEGFLPAKSKGRRDALKAIEAEPRTLIFYESTHRLLDSLEDIVAVLGESRYVVLARELTKTWETIHGAPVGELLAWVKEDENRRKGEMVLIVEGHKAQEEDLPADALRTLALLQAELPLKKAAALAAEIHGVKKNALYKYALEQQG
B2: enzyme (Enterococcus faecalis, UniProt Q836M4); chain MEIHFEKVTSDNRKAVENLQVFAEQQAFIESMAENLKESDQFPEWESAGIYDGNQLIGYAMYGRWQDGRVWLDRFLIDQRFQGQGYGKAACRLLMLKLIEKYQTNKLYLSVYDTNSSAIRLYQQLGFVFNGELDTNGERVMEWTHQNK
Sequence of UniProt P30566 (whole entry, looked up): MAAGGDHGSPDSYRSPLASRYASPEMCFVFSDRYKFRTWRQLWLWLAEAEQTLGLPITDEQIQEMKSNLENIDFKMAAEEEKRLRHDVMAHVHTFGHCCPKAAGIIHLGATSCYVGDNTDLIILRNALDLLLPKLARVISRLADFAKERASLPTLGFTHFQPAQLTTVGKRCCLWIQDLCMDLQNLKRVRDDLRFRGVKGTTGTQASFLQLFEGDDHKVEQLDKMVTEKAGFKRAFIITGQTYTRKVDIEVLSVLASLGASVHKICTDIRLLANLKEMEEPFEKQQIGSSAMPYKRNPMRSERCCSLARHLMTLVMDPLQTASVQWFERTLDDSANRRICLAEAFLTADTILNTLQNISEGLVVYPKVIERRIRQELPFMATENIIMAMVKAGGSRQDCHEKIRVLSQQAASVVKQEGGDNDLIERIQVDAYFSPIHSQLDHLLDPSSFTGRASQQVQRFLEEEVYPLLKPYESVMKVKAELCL
Sequence of UniProt O15354 (whole entry, looked up): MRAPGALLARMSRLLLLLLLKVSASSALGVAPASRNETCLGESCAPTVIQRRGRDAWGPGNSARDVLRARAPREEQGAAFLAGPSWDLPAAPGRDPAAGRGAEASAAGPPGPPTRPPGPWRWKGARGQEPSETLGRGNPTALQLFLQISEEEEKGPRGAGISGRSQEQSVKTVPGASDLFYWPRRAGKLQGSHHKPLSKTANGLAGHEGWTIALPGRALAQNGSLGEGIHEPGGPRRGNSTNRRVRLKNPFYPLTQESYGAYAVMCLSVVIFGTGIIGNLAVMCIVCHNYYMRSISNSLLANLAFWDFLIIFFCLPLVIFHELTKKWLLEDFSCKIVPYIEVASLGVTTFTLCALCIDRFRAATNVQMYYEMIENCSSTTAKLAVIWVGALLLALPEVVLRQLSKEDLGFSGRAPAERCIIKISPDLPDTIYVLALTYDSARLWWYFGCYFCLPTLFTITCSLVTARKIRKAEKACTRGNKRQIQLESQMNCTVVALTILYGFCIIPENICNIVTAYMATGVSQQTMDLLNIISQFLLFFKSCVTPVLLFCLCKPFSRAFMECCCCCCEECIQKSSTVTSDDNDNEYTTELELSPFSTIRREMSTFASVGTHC
Sequence of UniProt P64467 (whole entry, looked up): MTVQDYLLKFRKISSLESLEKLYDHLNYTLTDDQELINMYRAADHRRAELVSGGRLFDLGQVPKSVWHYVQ

aspterric acid  inhibition (hypocotyl length; Arabidopsis thaliana Col-0 seeds; 50 µg/mL): 98.9%
pertussis toxin  ERK phosphorylation (GPR37 (Homo sapiens, UniProt O15354); osteocalcin-induced pERK, inhibitor; HEK293 cells transfected with GPR37; concentration not given, added: osteocalcin after pretreatment): inhibited
enzyme (Bos taurus, UniProt F1N7C2)  K0.5 (CCCCCCCC/C=C\CCCCCCCC(=O)OC[C@H](COP(=O)(O)OC[C@H](N)C(=O)O)OC(=O)CCCCCCC/C=C\CCCCCCCC; steady-state kinetics; pH 7.5, 37 °C, added: ATP 5 mM): 21.5 µM
B1 (rsmI)  molecule per partner (itself; cryo-EM): 2
Polymyxin B  survival (mouse; intraperitoneal, 30 mg/kg single dose, day 2): 0%
ADSL (Homo sapiens, UniProt P30566)  K0.5 (Nc1c(C(=O)N[C@@H](CC(=O)O)C(=O)O)ncn1[C@@H]1O[C@H](COP(=O)(O)O)[C@@H](O)[C@H]1O; steady-state kinetics; pH 7.4, 25 °C): 1.8 µM
B2 (enzyme)  K0.5 (NCCCNCCCCNCCCN; steady-state kinetics; pH 8, 37 °C, Hill n 1.7, added: AcCoA 1 mM): 76.1 µM
amyloid β-peptide (1–28)  remaining substrate (substrate, LC-MS; phosphate buffer; 10 µM, 8 h, pH 7.4, 25 °C, added: imprinted nanoparticle 1 equiv): 16.9 ± 2.4%
insulin human  fold change (item: MAPK10 mRNA; EcoHIV-infected mouse, brain; i.p., dose not given; reference: PBS): 1.09
Cj1438c (Campylobacter jejuni, UniProt Q0P8H6)  kcat/Km (N[C@@H](CO)COP(=O)(O)O; steady-state kinetics; pH 8, 25 °C, apparent): 51000 ± 5000 M⁻¹ s⁻¹
heparin sodium  positive urine leukocyte esterase (healthy Chinese adult volunteers; continuous intravenous infusion, 8 IU/kg/h, 5 days): 25%
glucagon  plasma concentration (ELISA; human, type 1 diabetes, femoral artery plasma; intravenous infusion, 0.05 ng/kg/min, 100 to 120 min): 0.025 ± 0.0022 ng/mL
cnu (Escherichia coli, UniProt P64467)  pKa (fluorescence, item: His45): 5.4
ALS1 S627I/W548L (Oryza sativa)  Vmax (CC(=O)C(=O)O; steady-state kinetics; pH 7.5, 37 °C, added: FAD, MgCl2, TPP): 0.157 µmol/min/mg
HVLVMSATRR  alkaline phosphatase (peptide, C57BL/6J mice, male, serum; subcutaneous osmotic pump, 3 mg/kg/day peptide basis, 8 weeks): 94 U/L and 97 U/L and 56 U/L and 79 U/L
nonaarginine  kon (PorA peptide pore; peptide binding, planar bilayer single-channel recording; 0.5 µM, pH 7.4, -15 mV, cis side, 150 mM KCl): 6e+06 ± 600000 M⁻¹ s⁻¹

Some of these lines once more:
nonaarginine  kon (PorA peptide pore; peptide binding, planar bilayer single-channel recording; 0.5 µM, pH 7.4, -15 mV, cis side, 150 mM KCl): 6e+06 ± 600000 M⁻¹ s⁻¹
